Assay results gathered from unrelated publications.
Parts stem from different laboratories: compare values within a part only.
UniProt P42685, sequence (whole entry, looked up): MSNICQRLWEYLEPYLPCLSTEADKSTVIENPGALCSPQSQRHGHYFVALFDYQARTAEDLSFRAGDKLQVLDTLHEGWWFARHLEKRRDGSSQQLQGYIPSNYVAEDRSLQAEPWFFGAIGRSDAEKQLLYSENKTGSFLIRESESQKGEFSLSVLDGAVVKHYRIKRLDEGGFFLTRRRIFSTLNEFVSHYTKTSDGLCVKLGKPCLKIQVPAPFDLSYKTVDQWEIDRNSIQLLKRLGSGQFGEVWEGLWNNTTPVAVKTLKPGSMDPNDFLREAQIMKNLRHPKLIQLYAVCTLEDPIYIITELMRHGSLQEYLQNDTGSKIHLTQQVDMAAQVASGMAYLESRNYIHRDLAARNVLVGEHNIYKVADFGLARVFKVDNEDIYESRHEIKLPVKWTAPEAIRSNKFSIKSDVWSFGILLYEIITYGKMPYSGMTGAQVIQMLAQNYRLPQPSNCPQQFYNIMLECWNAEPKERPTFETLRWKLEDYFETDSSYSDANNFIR
UniProt P06213, sequence (whole entry, looked up): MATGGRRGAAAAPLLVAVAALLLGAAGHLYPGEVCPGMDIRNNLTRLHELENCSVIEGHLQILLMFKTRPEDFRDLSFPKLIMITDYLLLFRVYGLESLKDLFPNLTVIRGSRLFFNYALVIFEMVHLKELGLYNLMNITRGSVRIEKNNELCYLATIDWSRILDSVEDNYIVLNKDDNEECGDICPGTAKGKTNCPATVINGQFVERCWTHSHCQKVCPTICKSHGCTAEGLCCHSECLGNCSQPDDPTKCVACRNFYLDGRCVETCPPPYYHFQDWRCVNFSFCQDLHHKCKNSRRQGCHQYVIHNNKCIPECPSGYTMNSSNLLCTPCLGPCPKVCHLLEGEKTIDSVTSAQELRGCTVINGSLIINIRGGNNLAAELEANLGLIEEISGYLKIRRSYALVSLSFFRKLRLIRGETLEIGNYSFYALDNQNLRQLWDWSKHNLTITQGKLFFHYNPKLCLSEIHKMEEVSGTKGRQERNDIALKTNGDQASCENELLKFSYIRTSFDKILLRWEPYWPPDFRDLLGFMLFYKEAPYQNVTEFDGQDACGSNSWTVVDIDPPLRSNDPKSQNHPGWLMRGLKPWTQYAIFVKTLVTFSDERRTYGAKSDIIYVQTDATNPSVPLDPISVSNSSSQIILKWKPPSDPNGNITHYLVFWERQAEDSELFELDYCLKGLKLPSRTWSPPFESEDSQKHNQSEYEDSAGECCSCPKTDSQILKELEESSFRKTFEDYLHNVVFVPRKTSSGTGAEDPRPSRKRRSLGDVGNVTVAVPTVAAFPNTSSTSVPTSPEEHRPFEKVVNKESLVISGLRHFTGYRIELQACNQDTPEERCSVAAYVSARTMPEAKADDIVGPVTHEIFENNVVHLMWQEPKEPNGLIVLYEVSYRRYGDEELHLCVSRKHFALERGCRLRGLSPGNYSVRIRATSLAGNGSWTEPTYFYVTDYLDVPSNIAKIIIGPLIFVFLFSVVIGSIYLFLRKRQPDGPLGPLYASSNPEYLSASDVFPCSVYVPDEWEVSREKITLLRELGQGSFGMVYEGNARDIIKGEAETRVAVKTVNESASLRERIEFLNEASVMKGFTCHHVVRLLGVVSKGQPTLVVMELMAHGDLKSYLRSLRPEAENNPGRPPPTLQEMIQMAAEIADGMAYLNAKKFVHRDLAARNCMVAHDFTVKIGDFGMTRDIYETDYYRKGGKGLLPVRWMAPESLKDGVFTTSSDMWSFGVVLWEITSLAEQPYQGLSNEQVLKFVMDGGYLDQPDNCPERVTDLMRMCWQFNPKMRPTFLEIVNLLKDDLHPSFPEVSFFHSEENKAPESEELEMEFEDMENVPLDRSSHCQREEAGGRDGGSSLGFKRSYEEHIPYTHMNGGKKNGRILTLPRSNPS
UniProt P42336, sequence (whole entry, unmodified, looked up): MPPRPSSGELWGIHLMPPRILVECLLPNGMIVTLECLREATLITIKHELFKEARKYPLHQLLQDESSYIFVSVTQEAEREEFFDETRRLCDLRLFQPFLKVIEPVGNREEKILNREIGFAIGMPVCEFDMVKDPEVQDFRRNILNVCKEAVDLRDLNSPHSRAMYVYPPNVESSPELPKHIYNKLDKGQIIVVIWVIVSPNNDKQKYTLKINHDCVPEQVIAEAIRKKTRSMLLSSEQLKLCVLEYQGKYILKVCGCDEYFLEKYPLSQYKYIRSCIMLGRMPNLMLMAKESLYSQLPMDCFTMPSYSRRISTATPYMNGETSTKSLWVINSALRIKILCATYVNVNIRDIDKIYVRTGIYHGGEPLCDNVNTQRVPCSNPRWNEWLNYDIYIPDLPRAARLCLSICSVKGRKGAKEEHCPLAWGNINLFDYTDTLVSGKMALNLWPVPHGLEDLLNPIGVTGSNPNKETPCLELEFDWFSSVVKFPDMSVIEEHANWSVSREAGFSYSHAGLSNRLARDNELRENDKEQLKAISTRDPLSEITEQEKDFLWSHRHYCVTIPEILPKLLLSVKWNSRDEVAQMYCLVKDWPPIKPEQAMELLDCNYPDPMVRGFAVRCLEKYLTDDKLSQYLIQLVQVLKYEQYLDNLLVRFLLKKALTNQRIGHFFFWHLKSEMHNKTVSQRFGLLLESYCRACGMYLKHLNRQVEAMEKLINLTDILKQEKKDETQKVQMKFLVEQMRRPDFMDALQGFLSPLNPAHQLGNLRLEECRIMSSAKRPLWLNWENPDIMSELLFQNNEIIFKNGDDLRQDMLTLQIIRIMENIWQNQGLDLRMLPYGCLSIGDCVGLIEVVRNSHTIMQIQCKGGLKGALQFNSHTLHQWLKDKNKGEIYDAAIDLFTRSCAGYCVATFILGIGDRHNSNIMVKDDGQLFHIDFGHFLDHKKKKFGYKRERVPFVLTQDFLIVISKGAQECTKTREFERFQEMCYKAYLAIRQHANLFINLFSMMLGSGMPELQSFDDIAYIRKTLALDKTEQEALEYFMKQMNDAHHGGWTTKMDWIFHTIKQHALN
UniProt O76039, sequence (whole entry, looked up): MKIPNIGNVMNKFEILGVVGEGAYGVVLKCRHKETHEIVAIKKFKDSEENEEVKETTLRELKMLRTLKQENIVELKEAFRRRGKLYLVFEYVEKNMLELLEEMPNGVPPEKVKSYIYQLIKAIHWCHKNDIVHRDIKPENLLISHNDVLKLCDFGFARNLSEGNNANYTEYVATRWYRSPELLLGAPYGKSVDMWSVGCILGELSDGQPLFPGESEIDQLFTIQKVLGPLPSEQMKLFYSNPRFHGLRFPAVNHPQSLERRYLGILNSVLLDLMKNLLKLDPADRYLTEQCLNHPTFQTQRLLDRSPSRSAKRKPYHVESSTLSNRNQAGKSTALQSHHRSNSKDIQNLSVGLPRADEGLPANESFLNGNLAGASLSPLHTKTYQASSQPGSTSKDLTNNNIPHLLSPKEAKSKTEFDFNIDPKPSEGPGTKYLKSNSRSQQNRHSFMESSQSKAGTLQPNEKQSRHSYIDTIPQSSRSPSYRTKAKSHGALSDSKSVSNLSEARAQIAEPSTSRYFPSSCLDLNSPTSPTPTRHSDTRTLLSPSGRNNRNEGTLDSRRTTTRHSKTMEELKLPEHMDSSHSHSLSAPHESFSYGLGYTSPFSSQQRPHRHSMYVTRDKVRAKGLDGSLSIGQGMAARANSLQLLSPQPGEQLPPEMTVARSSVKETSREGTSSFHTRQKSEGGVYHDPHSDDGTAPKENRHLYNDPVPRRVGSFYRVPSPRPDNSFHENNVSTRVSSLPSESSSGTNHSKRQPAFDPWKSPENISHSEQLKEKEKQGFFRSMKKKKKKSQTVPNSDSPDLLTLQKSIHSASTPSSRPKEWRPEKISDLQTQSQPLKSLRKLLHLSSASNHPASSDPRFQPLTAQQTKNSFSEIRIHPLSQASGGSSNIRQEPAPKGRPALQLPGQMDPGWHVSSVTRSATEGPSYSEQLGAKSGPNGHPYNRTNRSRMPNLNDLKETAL

Sample 1 — technique: competition with immobilised ligand; concentration: 1 µM; endpoint: remaining binding
SMILES: CCc1ccccc1C(=O)Nc1n[nH]c2c(C)c(F)c(C3C(C#N)=C(C)N(C)C(C)=C3C#N)cc12
PIK3CA (Homo sapiens, UniProt P42336, I800L); cell-free assay: 100%
FRK (Homo sapiens, UniProt P42685); cell-free assay: 100%
NEK2 (Homo sapiens, UniProt P51955); cell-free assay: 87%
CDKL5 (Homo sapiens, UniProt O76039); binding: 100%
Insulin receptor (INSR, Homo sapiens, UniProt P06213); cell-free assay: 100%
WNK1 (Homo sapiens, UniProt Q9H4A3); cell-free assay: 100%
FLT3 (Homo sapiens, UniProt P36888, F691L/ITD); cell-free assay: 11%

Sample 2 — observed: enzyme activity; mode: inhibitor; concentration: 0.5 µM; baseline: control; endpoint: remaining activity
Target: Serine/threonine-protein kinase Nek2 (NEK2, Homo sapiens, UniProt P51955)
Target sequence (P51955 1-445): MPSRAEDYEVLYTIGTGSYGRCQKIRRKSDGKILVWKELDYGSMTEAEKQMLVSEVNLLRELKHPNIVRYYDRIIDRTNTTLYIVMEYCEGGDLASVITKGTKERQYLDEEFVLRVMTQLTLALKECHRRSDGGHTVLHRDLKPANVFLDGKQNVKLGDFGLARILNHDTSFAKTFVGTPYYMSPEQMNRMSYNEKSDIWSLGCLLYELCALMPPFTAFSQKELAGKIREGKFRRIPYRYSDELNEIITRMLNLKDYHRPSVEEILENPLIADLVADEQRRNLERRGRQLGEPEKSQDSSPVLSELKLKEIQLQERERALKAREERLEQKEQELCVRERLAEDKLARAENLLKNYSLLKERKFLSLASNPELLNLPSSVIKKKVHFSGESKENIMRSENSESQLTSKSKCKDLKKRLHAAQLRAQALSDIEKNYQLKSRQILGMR
C#Cc1cccc(Nc2ncnc3cc(OCCOC)c(OCCOC)cc23)c1: 100%
O=C1NC(=O)C(c2cn(CCCn3ccnc3)c3ccccc23)=C1Nc1ccccc1: 106%
CC(C)[C@H](CO)Nc1nc(Nc2cc(N)cc(Cl)c2)c2ncn(C(C)C)c2n1: 94.4%
Nc1ncnc2n[nH]c(Nc3ccc(F)cc3)c12: 89.3%
COc1ccc(CNC(=O)Nc2ncc([N+](=O)[O-])s2)cc1: 99.1%
Cn1c2ccccc2c2c3c(c4c5ccccc5n(CCC#N)c4c21)CNC3=O: 89.9%
Cc1nc(-c2ccccc2)c(-c2ccncc2)o1: 116%
CN(C)c1ccc(C=C2C(=O)Nc3ccccc32)cc1: 98.4%
O=C(O)c1ccc2c3c1cccc3c(=O)n1c3ccccc3nc21: 109%
O=S(=O)(c1cccc2cnccc12)N1CCCNCC1: 92.3%
O=C(CCCc1ccc(-c2ccccc2F)cc1)Nc1ccc(O)cc1: 90.6%
Cn1sc(=O)n(Cc2ccccc2)c1=O: 99.7%
N#CC(C#N)=C(N)/C(C#N)=C/c1ccc(O)cc1: 102%
Cc1ccc(Nc2nccc(N(C)c3ccc4c(C)n(C)nc4c3)n2)cc1S(N)(=O)=O: 110%

Sample 3 — cell line: mouse MPNST tumor cells; technique: high-content immunofluorescence imaging; refers to: nuclear SOX9; concentration: 10 µM; time: 12 h; setting: mean of 2 replicates; baseline: DMSO control; reading: higher = more nuclear SOX9; endpoint: nuclear SOX9 intensity
CN(C)CCC(c1ccc(Br)cc1)c1ccccn1 (stereo not shown): 111 % of DMSO
O=[N+]([O-])c1c(Nc2cc(F)cc(Cl)c2)ccc2nonc12: 92.1 % of DMSO
CC(=O)OCC1=C(C(=O)O)N2C(=O)[C@@H](NC(=O)Cc3cccs3)[C@H]2SC1: 81.3 % of DMSO
O=C(NNC(=O)c1ccc(CNS(=O)(=O)c2ccc(F)c(Cl)c2)cc1)c1ccccc1: 99.5 % of DMSO
Cc1c(C(N)=O)nc2n1C[C@@H](COc1ccc(C(C)(C)C)cc1)O2: 103 % of DMSO
COc1cc(CN(CCN)C(=O)c2cccs2)ccc1OCc1ccccc1: 99.9 % of DMSO

Sample 4 — host: human; matrix: microsomes or S9; concentration: 2 µM; time: 0.5 h; endpoint: remaining compound
CC(c1cccc(O)c1)N(C)S(=O)(=O)c1ccc2cn[nH]c2c1 (stereo not shown): 70.9%
O=C(O)COc1ccc(C#Cc2ccc(C(=O)NCc3ccccc3)cc2)cc1: > 99%
CCCc1ncncc1C(=O)N1CC[C@@](O)(c2ccccc2)[C@H]2CCCC[C@@H]21: 1.1%
CCOC(=O)Cn1cnc2c1c(=O)n(C)c(=O)n2C: 2.05%
Cn1c(Nc2ccccc2Cl)cc(=O)n(C)c1=O: 92.5%
COc1ccccc1NC(=O)c1cc2c(OC)cccc2[nH]1: 6.8%
CCOc1ccccc1NC(=O)NC1(C(=O)O)CCCCC1: 53.7%

For quick reference, copied from above (sample 1):
PIK3CA (Homo sapiens, UniProt P42336, I800L); cell-free assay: 100%
Insulin receptor (INSR, Homo sapiens, UniProt P06213); cell-free assay: 100%
NEK2 (Homo sapiens, UniProt P51955); cell-free assay: 87%
WNK1 (Homo sapiens, UniProt Q9H4A3); cell-free assay: 100%
